# Measured values collected from several papers.
# Each numbered part is a random draw from the data of one study; scales do not carry over between parts. Changes are numbered by the printed parent chain.

# Block 1
# Target: CCND2, cyclin fold, Cln2 fusion (human)
# Technique: yeast growth competition, sequencing
# Sample: yeast
# Notes: weak parent motif
# Baseline: not given
# Direction: higher = stronger binding
# Starting sequence: RRM2 docking peptide (human); SKTARRIFQEPTE
Variant,normalised enrichment score
K2A,0.388
S1A,0.168
I7A,0.249
R5A,0.286
R6A,-0.0651
P11A,-0.301

# Block 2
# Target: CREB3L1, bZIP domain (human)
# Technique: DHFR protein complementation
# Sample: yeast
# Notes: single substitutions, most at no-binding floor
# Baseline: wild-type JUN-FOS pair
# Direction: higher = stronger binding
# Starting sequence: JUN, bZIP domain (human); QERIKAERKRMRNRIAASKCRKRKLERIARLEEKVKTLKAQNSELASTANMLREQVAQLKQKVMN; partner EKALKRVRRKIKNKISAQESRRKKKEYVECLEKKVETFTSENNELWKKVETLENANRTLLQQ
Variant,binding fitness [natural log]
E44F,-1.49
E33I,-1.42
E44I,-1.36
V35K,-1.4
E44R,-1.47
R30I,-1.39
L31T,-1.26
E54L,-1.41
A57M,-1.47
A46W,-1.3
A49C,-1.45
E32Q,-1.34
E32W,-1.52
L38A,-1.48
Q55I,-1.32
A49D,-1.39
Q55A,-1.49

# Block 3
# Target: Sal-like protein 4, full length isoform B (SALL4, Homo sapiens, UniProt Q9UJQ4-2, residues 1-616)
# Technique: universal PBM
# Molecule type: double-stranded DNA, one strand shown
# Sample: in vitro
# Tested at: not given
# Notes: 8-mer, flanks averaged, mean of replicates
# Direction: higher = stronger binding
Sequence,E-score
CGATCCGC,-0.277
CCGCTACA,-0.131
ACGCCCGC,-0.305
AAACCGCC,-0.0993
AAGACGCG,-0.1
GCCGCGGA,-0.354
AGAGACCA,-0.159
AACCTTTC,0.00102
CCCCCCCA,-0.267
AAGTGAGA,0.0134
TGATCCAA,0.162
ACGTACGA,0.0644
GACGAGAC,-0.0826
GAAACGTC,-0.0581
GCCCTTCA,-0.149
CCACTAAA,-0.00633
CCCTTAGC,-0.266
AAATCAAT,0.319
CGTTTCTC,-0.192
CGCCCTCA,-0.251
GCCTAACC,-0.133
CATTTGCG,0.0466
GGGAGTAA,0.0327
CCGTACCC,-0.221
GACGCGAA,-0.026

# Block 4
# Target: Prothrombin, mature alpha-thrombin (F2, Homo sapiens, UniProt P00734)
# Technique: aptamer microarray, sandwich
# Molecule type: DNA with 2'F-ANA
# Sample: in vitro
# Tested at: 200 nM
# Notes: whole 15-mer aptamer, many near background
# With: Cy3 exosite-II aptamer, 400 nM
# Direction: higher = stronger binding
# Sequence: GGTTGGTGTGGTTGG
Modification,mean fluorescence intensity [a.u.]
2'F-ANA at 2 6 8 10 11 12,142
2'F-ANA at 4 5 6 7 8 9 12 13 15,82.5
2'F-ANA at 1 3 5 6 7 8 11 13 14,48.7
2'F-ANA at 3 5 7 8 11 12 13 15,186
2'F-ANA at 1 2 3 6 8 9 15,247
2'F-ANA at 2 5 7 8 9 12 14,49
2'F-ANA at 2 3 5 7 8 9 10 11 13,64.7
2'F-ANA at 1 2 3 4 7 8 11 12 13,270
2'F-ANA at 2 4 8 10 11 12 13 15,82.7
2'F-ANA at 4 6 8 9 11 12,445
2'F-ANA at 3 4 9 10 14 15,189
2'F-ANA at 4 6 10 14 15,56.8
2'F-ANA at 2 5 6 7 8 10 14 15,49.5
2'F-ANA at 1 3 4 6 10 13,54.9
2'F-ANA at 2 3 7 8 11 13 14,484
2'F-ANA at 1 3 4 6 13,125
2'F-ANA at 1 3 4 7 8 10 11 12 13 14 15,53.8
2'F-ANA at 1 2 5 6 8 10 13 14,49.5
2'F-ANA at 1 3 7 8 10 11 13 14 15,64.1
2'F-ANA at 2 5 11 14 15,43.1

# Block 5
# Target: Fragile X messenger ribonucleoprotein 1, C-terminal low-complexity region (Fmr1, Mus musculus, UniProt P35922)
# Technique: RNA Bind-n-Seq
# Molecule type: RNA
# Sample: in vitro
# Tested at: 200 nM
# Notes: whole 134-nt RNA, ends assumed
# With: 150 mM LiCl
# Baseline: input library
# Direction: higher = stronger binding
# Library: 7-deaza-guanosine replaces G
Sequence,log2 enrichment
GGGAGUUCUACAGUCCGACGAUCAGUCCUGUGCUACACAUCGUAUGUACCGAAUCGGCCCCCGGCCCCCGGGGCCCCCGGAAAGUAUUAUGUUACGCCGUUCGGAUCUGCACUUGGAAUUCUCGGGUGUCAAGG,-2.54
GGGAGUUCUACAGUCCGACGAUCUAACUUUAGAGGAGGAUCUGAUGGAUAUGGCAGUGGACGUGGAUUUGGAGAUGGCUAUAAUGGGUAUGGAGGAGGACCUGGAGGUGGCAAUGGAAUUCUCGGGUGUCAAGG,0.103
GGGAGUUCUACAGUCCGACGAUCCACAGACAACACGCACCCUCACAGACACAGAGGGAAGGGGUUGGGAUGGGGACAGGGUGCACAGCAGGGCGGGGUAGGACCCCAGCCCCUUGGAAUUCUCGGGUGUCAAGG,-1.33
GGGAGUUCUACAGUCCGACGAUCGUCCUGUGCUACACAUCGUAUGUACCGAAUCGGGGCCCCCGGCCCCCGGGCCCCCGGGAAAGUAUUAUGUUACGCCGUUCGGAUCUGCACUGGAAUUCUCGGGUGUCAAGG,-2.79
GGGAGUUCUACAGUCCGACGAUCAAGUCCUGUGCUACACAUCGUAUGUACCGAAUCGGGUUUUUGGGAAAAAGGGAGGGAAAGUAUUAUGUUACGCCGUUCGGAUCUGCACUUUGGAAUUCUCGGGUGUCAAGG,-1.28
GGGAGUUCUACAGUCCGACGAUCUGGGAGGUGGAUUUUGUUUAUUUUUUUAGCUCAUUUCCAGGGGUGGGAAUGUUUUUUUAAUAUGUGUCAUGAAUAAAGUUGUUUUUGAAAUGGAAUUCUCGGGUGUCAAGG,-0.666
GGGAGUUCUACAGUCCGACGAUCCACAGACAACACGCACCCACACAGACACAGAGGGAAGGGGUUGGGAUGGGGACAGGGUAAACAGCAGGGCGGGGUAGGACCCCAGCCCCUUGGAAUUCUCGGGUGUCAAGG,0.0836
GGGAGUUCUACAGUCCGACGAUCCUGUGCUACACAUCGUAUGUACCGAAUCGGUUUUUUUGGUUUUUUUGGGGUUUUUUUGGGGAAAGUAUUAUGUUACGCCGUUCGGAUCUGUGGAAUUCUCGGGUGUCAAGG,0.784
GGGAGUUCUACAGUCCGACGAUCUCAAGUCCUGUGCUACACAUCGUAUGUACCGAAUCGGGAAAGGGUUUGGGAGGGAAAGUAUUAUGUUACGCCGUUCGGAUCUGCACUUCCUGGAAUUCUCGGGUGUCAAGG,-1.01
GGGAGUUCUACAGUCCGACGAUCUGGGAGGUGGAUUUUGUUUAUUUUUUUAGCUCAUUUCCAGGGGUGGGAAUUUUUUUUUUAUAUGUGUCAUGAAUAAAGUUGUUUUUGAAAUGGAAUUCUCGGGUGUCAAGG,0.34
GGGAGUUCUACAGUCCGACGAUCCCUCAAGUCCUGUGCUACACAUCGUAUGUACCGAAUCGGUUGGUUGGGUUGGGAAAGUAUUAUGUUACGCCGUUCGGAUCUGCACUUCCAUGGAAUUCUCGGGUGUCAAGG,-0.0183

# Block 6
# Target: Histone acetyltransferase KAT6A, winged helix 2, GST fusion (KAT6A, Homo sapiens, UniProt Q92794, residues 85-181)
# Technique: protein binding microarray
# Molecule type: double-stranded DNA, one strand shown
# Sample: in vitro
# Tested at: not given
# Notes: 8-mer, flanks averaged, mean of 2 arrays, mostly near background
# Baseline: not given
# Direction: higher = stronger binding
# Residues (chain): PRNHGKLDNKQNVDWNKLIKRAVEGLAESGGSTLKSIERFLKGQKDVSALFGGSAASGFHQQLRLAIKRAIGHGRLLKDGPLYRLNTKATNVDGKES
Sequence,E-score
AAGAAAGC,0.0715
AGCCGCAA,0.0545
ACATGGCT,-0.212
ACATTAGT,-0.22
ACATAAAG,-0.0311
AAATCAGA,-0.00175
AGGAGGCG,-0.0254
TCGAGTAA,0.00937
CGTAAAAC,-0.0796
ACACGTGG,-0.144
ATTACCAC,0.0347
CCTCACAC,0.05
ATGGCATG,0.0325
CACCAATA,-0.0476
AGTCTGTC,-0.144
CGTGACTC,-0.152
ACCGAACA,0.00498
TAATCTGA,-0.0352
CAGACGCA,0.176
CTCAGCGA,-0.151
ATTATTCG,0.0735

# Mixed results
Molecule,target,test,system,conditions,how to read,endpoint,value
"PhoQ, residues 284 288 289 292 302 303 AGHLVA","PhoP, residues 12 14 15 18 19 SYFRT (Escherichia coli, UniProt P23836)","Sort-seq, refers to: YFP reporter",E. coli,"PhoQ-PhoP variant library, with: 10 µM Mg2+","baseline: high Mg2+ state, higher = stronger signaling",fold induction,1.08

# Excerpt of the above (block 2):
Variant,binding fitness [natural log]
E44F,-1.49
E33I,-1.42
E44I,-1.36
V35K,-1.4
E44R,-1.47
